# Measurements from different studies.
# A part holds a random share of what one study measured.

# Sample 1 — method: EMSA with sequencing; molecule type: double-stranded DNA, one strand shown; medium: in vitro; concentration: 10 and 20 nM; reference: negative control set to 0; reading: higher = stronger binding
# Target: Hepatocyte nuclear factor 3-alpha (Foxa1, Mus musculus, UniProt P35582, residues 1-468, full length assumed)
# UniProt P35582, sequence (whole entry, looked up): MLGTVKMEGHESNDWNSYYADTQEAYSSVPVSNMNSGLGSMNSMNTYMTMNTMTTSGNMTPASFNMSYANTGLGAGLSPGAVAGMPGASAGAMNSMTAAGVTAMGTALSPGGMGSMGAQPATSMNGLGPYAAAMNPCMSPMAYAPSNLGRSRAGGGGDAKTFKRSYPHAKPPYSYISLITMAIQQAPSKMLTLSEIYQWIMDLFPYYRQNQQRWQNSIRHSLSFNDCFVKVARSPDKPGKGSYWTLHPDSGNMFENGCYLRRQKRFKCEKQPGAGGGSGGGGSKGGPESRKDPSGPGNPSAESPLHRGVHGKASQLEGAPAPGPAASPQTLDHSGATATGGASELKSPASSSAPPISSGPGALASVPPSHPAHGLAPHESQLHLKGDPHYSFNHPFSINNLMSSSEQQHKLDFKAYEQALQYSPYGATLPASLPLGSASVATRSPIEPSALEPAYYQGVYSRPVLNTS
# Setting: whole designed probe, mean of two concentrations, ends assumed
Strand,normalised bound fraction
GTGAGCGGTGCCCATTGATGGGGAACACATTTGGGTCATTCCACCCTTTGACTAATGTGATCAGTGCTGCTCTGAACATTCGTGTATGAGTATTTGAGGATCGTTTTCACTTCTCTTGGGTAAACATCTAGGAGTGAAATTCCAGAGTCATAGGGCAGTTTTATGTGTAACTACTTTTTGAGGAGTGCAGTGGCATAATCTTGCCTCACTGAAACCTCCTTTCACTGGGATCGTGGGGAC,0.265 ratio
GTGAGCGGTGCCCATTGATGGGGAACTAGGAATTTGGTTAGCTCCCTAAATAACTTCTCTGCTTTCCTCATCTGCAATTAGCTAAATGGAAAGCAATCGTGATCTCAGGATAAGCCTCATGTTTACATTTGAGTTCAGACGCCCTCACCCGGTACCAAGACTGCAAAGCAGCCCCAAATACACCCTAACCCATCTTTCCAAGCATAAATCCTTTTGCTCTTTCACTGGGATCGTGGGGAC,0.265 ratio
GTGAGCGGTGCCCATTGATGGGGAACATCTTCCCCCTCTTCCTTGCCCCACCAGCTCACCTTCCCGGGTTATTTGCAGATAGGAAAATAAATAAAGCCGGCATTCGTTAACGCAGTTCTGGCGCAAACTGCTGTTTGCTCTGCATGAATCATGGTCCTTACGCGACGCCAGGCTCCGGGAGAGCAAAGCACCGTGTCAGGCGCATGATCCGGGGTGGCCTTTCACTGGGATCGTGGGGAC,0.352 ratio
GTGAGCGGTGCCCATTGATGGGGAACTAGGGTCCAATTCTGTCTGAGAAACTAGCGAGCCATATAAATATTGTATCTGGGTCAACAAACAGCTGTTCAAAAATATCTGTGGCATTTGCTGTTTACTTTGATTGCCTTGGATAATAGTCACTAGGCAACAGGACGGTTTGCTCTTTCGTGCATGGCGGCCGTTAGTTAAGTTGTTATATAACATGCCAAGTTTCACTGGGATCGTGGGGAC,0.368 ratio
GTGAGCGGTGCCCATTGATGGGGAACATCTTCCCCCTCTTCCTTGCCCCACCAGCTCACCTTCCCGGGTTGTTTACTTTGAGCAAAGTAAACAAAGCCGGCATTCGTTAACCCTCTTCTGGCGCAAACTGCCAGAGCAAACAGATGAATCATGGTCCTTTGGCGACGCCAGGCTCCGGGAGAGCAAAGCACCGTGTCAGGGCCATGATCCGGGGTGGCCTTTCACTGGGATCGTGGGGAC,0.524 ratio
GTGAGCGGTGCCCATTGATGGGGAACCCAAGAAAAAGAGCCTTTGGGTGAGTGCACAGCACCCCTCTGTCTTAGGTCCCCAGATATATCTCAATTTGGGCTTCTTCTGGAACATGAAACAAATTACTTTGAGTTTCCTACGAAAACATAGTGCTGGCCTTAGACTTCCTATCCTGAAACCCCACGTCTATTTCCCAACCTCATGCATGGAAAAGTGCTCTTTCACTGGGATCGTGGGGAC,-0.0817 ratio
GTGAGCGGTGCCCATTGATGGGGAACTATCATGAATTTGCACTATGACAAATCAACTTTCAAGCATTTTCTTGACAGTTTTAGAGGTTTTGCCAGCTTTTGACATACATACAGACAGAGTAATCTAGGGGAAAAAAGAAAACTTAGTGAGCACGTAAGTCATGGAGTTTGAGCTCCAATAAAAATATTCATTAAAGAGGAAGAATAAGGTGGGGGGTGGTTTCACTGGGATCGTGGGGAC,0.00912 ratio
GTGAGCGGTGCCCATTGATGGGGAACAAATTTGAAGCTTCACTTATATTGTGTCTTTATTCTGGAAAATAAATATTATTTATTCTGTTAAGTTTCTATTGGTTTTCTTTGCAATATTTCATGTTTACTTTGTTTTAGCTAAACTTTTTCTGGTATGGTGTACTAGAGACTTCTAACAAATTCTATATAAAAACAGACACACGTATAATAATCATATCTTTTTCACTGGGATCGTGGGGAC,0.366 ratio

# Sample 2 — method: RNAcompete; molecule type: RNA; medium: in vitro; concentration: 20 nM; setting: 7-mer, probes averaged, single round; reference: mean of 7-mers; reading: higher = stronger binding
# Target: PABPC1L2, full length, GST fusion (mouse, UniProt A0ABA7IW68)
# Construct (chain): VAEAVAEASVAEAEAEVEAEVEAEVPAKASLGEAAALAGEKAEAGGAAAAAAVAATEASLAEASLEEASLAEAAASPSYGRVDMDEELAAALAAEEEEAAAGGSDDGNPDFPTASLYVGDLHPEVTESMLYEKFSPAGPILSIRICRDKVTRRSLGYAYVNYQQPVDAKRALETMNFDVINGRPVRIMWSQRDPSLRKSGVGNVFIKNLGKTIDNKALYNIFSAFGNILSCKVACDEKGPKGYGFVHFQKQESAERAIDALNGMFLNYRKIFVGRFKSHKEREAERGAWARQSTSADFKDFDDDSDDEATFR
Strand,7-mer Z-score
UAUAAUC,-0.164
UGCGUCA,-0.309
GGUAUGA,-0.141
GUAGUCG,-0.28
GCCCUAA,-0.0645
UGAGGGU,-0.0283
UUUCGGU,-0.32
UUUGGUG,-0.371
CGUGUGA,-0.277
UGCUUCC,-0.374
UCAACUA,-0.286
UCCAAGA,-0.021
UCAGCUG,-0.293
CCACUAG,-0.316
CGAGAUG,0.0551
GUGACAC,-0.0554
CCUGAAG,-0.262
CGGACUG,0.00979
CUUAACG,-0.267
GUUAAAA,1.92

# Sample 3 — method: RNA Bind-n-Seq; molecule type: RNA; medium: in vitro; concentration: not given; setting: RNA with constant flanks, ends assumed; reference: input RNA pool; reading: higher = stronger binding
# Target: RING finger protein unkempt homolog, zinc fingers 1-6, GST-SBP tag (UNK, Homo sapiens, UniProt Q9C0B0, residues 30-357)
# Residues (chain): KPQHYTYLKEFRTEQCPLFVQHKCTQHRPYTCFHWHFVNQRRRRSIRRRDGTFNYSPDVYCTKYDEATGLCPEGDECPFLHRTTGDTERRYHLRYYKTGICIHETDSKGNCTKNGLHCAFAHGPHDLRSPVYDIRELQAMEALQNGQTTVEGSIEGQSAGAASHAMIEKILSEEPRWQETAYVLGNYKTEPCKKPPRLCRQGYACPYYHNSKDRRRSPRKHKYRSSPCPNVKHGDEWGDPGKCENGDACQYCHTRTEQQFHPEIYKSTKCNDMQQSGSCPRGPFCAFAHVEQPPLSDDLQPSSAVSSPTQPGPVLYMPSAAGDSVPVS
Strand,bound/input enrichment
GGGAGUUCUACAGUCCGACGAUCGUUGUACCUAAAGGAAAAGGAGAACAGAUUGCAAGGGAGCAUGGUAUUAGGUUUUUUGAGACCCGUGCAAAAGCAAAUAUAAACAUCGAAAAGGCGUUCCUCACGUUAGCUGAAGAUAUCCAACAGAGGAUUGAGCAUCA,0.923 ratio
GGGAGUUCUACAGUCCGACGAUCCGGAACACGAUCGCCUCCAUCGCUGCUGGCGUUCUAUUUUUCACGGGAUGGUGGAUCAUCACCGACGCGGCUGUCAUGUACCCCAGGAUGGAUCAAUUCAACCAUUCAUACCAUACCUGUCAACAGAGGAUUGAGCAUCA,0.0541 ratio
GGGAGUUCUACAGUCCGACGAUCUCUCUCCUCCUAAGUUACGGGGCAGAUCCAACCCUGCUGAACUGUCACAAUAAAAGUGCUACCGACCUGGCCCCCACGGCACAGCUGAAGGAAAGAUUAUCGUAUGAAUUUAAAGGCCAUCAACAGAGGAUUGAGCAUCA,0.169 ratio
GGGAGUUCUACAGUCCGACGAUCCUGCAUUAUUUGACCAGAGUUGAAGUGACAGAAUUUGAAGACAUUAAAUCAGGUUACAGAACCGAUUUUUAUUUUGAUGAAAAUCCUUACUUUGAAAAUAAAGUUCUCUCCAAAGAAUUUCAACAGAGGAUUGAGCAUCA,0.132 ratio
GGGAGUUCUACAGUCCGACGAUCAAGGUUAAAUUGCUCACUGGCAAACGAGUUCAGCUGGCAGAAGAUCUCAAGAAAGUCCGAGAAAUUCAAGAAAAGCUUGAUGCUUUCAUUGAAGCUCUUCACCAGGAGAAGUAGACUGUGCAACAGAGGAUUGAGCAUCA,0.22 ratio
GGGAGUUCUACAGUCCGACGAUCUGCACUCUUCUGUUCAUUCUGACCCCUUCCUCAACCUCUUCACGCUGGCAUGUCCUUUUGCCGCAGUCUGUAACUUAACUAUAGUAUAAUGAAAAGAAUGACCUAUAAUAUAGGUGUUUUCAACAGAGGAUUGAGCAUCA,2.01 ratio
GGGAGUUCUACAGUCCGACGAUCUACAAGGAAUUGAAGAAUUUGAUUCCUAAGUCAGCAGUGGGCACACUGUCUGGAAACUCCCGUAAUGUGAUCCAGCUAAUCAUCGAUGCCUACAACUCUCUUUCUUCAGAAGUCAUUCUGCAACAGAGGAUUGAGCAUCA,0.0603 ratio
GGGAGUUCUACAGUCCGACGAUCGAGAGGGAUGGUGGGACCAGUUACUCUCCACAAGAAAAUUCACACAACCACAGUGCUCUUCACCGUUCAAAUUCACAUUCUUCUAAUCCAAGCAAUAACCCAAGCAAAACUUCAGAUGCACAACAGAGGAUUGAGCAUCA,0.274 ratio
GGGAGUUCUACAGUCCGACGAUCGUACCACCUGUCGCGGCGCGAGACCUCUGGUGAAAGAAAAGAUGUUGUCCCGGUUAAGAGCCGUUUCCACCACUUGUACUUUGGCAUGUCGACAUUUGCACAUAAAAGAAAAAGGCAAGCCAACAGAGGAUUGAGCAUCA,0.0914 ratio
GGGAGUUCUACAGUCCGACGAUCUGUGUGUGUGUGUGUGUGUGUGUGUGUGUGUGUGUGUGAAUUUUCUAUCGGCCUGGAUAUAUCCGCAGGGUUUGAAUGUAGUUUUGGCCUUUGGCCAUUAUAUACUUCUAUUAAAAUCCACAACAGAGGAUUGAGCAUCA,0.56 ratio
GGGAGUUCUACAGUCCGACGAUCUUGGAAAAUGGAUAUACUUUAUUUGACUACGACGUUGGACUGAAUGAUAUAAUUCAGCUGCCCGUUCGUCCAGACUCCAGUCUUCCUAGCACAUCUAAGCAGAAUGAUGCUCAGGUUAAACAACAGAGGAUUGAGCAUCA,0.742 ratio

# Sample 4 — method: protein binding microarray; molecule type: double-stranded DNA, one strand shown; medium: in vitro; concentration: not given; reference: not given; reading: higher = stronger binding
# Target: Histone acetyltransferase KAT6A, winged helix 1, GST fusion (KAT6A, Homo sapiens, UniProt Q92794, residues 1-85)
# Setting: 8-mer, flanks averaged, mean of 2 arrays, mostly near background
# Residues (chain): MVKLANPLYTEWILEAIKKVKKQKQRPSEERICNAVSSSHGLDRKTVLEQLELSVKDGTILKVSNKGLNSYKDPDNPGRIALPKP
Strand,E-score
GGGAATTA,-0.03
CATCTAGA,-0.118
ATGAGTCG,-0.104
ACCAAAAC,-0.0344
CCAGGTGA,-0.274
AAGTGCGC,0.318
GCCCATAA,0.171
ACGCTACC,0.254
CACCAGTG,-0.0923
TCACACGA,-0.14
AAATAAGA,-0.0714
CGGTTAGC,0.201
ACAGTGCT,-0.00171
CAGGTTGC,-0.0612
AAGTCGCG,0.163
AGATGGCG,0.0375
AGATATGG,-0.257
AGACCGCA,0.15
CCGCACTA,0.147
CGTTGGCC,0.126
AGCCTAGA,-0.0013
GCGGCTCA,0.283
ACCTCCAC,-0.08
CCCGTATC,0.217
GTGTGCGA,0.14

# Sample 5 — method: universal PBM; molecule type: double-stranded DNA, one strand shown; medium: in vitro; concentration: 600 nM; reading: higher = stronger binding
# Target: Sal-like protein 4, full length isoform A (SALL4, Homo sapiens, UniProt Q9UJQ4, residues 1-1053)
# UniProt Q9UJQ4, sequence (whole entry, looked up): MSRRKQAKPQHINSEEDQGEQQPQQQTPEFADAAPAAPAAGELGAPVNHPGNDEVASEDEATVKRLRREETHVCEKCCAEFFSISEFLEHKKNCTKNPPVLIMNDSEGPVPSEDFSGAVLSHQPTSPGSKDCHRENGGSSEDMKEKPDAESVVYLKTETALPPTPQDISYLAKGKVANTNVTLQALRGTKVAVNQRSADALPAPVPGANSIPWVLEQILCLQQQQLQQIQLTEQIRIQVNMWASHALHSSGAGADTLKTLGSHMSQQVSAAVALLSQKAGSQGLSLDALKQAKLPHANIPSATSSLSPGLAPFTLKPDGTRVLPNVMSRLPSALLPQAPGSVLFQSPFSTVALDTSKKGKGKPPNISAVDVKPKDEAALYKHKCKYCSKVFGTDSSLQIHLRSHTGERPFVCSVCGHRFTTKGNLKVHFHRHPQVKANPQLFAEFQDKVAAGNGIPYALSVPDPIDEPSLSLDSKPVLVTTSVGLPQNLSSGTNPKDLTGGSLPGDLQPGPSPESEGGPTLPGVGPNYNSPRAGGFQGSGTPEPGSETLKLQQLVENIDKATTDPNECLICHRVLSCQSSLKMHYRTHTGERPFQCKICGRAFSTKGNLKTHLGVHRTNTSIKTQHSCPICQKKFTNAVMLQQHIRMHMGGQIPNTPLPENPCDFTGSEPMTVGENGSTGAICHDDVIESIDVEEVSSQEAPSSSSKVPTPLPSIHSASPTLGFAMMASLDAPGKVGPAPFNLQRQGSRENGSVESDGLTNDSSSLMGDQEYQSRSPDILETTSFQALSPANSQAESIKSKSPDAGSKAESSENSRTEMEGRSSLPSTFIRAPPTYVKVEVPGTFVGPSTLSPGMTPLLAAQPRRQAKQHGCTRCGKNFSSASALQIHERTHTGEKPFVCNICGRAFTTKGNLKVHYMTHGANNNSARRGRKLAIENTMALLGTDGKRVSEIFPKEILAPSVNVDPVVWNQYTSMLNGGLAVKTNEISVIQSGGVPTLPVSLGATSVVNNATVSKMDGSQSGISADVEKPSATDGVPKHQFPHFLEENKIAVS
# Setting: 8-mer, flanks averaged, mean of replicates
Strand,E-score
CACGCCTC,-0.19
GTAACGAA,0.141
AAAAGGTT,-0.00156
CCCGTGAC,-0.211
CACATTCA,0.131
TCAGGTAA,0.0876
AGCTTATG,0.23
ATAACCGC,0.108
CGTCACCA,-0.0317
CCCGGGCA,-0.309
CCAAAAGG,-0.0621
GCACCGTA,-0.201
TAACCATA,0.286
CTTGCCGA,-0.0758
AATAAACC,0.274
GAGGGGCA,-0.214
CAAGTACA,0.0539
AGATTTGC,0.0654
ACTGTAAA,0.254
GGGAACCC,-0.321
AGAGAGCG,-0.148
ACCAGTGG,-0.171
CTTTCACA,0.162
CATGGGCG,-0.361
AGATGTAT,0.272
